Measurements pooled from the literature.
Every numbered part comes from another study and shows a few of its results, in no order.
Chain of UniProt Q9H3Y6 (whole entry, looked up): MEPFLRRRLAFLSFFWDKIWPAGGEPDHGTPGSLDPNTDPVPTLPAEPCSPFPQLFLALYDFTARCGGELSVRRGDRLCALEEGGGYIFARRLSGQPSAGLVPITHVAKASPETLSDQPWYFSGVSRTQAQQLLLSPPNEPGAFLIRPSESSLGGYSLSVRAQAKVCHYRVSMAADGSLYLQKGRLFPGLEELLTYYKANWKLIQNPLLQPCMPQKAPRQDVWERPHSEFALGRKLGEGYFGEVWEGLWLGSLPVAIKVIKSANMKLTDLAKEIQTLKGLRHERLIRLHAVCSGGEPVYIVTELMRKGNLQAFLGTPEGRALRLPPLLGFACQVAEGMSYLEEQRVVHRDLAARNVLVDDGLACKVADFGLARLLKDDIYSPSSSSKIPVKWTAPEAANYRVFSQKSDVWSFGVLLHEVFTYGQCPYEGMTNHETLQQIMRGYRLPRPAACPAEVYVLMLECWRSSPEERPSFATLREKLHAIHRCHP
Chain of UniProt Q9NS66 (whole entry, looked up): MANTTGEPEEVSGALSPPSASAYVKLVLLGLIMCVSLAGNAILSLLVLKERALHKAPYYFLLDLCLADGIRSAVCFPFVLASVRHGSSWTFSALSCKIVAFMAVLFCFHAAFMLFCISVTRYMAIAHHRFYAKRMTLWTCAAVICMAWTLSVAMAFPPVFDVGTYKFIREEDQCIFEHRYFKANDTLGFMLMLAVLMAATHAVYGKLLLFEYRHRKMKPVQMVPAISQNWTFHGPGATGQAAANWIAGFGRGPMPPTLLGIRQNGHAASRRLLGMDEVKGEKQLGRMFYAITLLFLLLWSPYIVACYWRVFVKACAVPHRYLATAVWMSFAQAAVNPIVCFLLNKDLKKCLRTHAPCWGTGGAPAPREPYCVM
Chain of UniProt Q9UIK4 (whole entry, looked up): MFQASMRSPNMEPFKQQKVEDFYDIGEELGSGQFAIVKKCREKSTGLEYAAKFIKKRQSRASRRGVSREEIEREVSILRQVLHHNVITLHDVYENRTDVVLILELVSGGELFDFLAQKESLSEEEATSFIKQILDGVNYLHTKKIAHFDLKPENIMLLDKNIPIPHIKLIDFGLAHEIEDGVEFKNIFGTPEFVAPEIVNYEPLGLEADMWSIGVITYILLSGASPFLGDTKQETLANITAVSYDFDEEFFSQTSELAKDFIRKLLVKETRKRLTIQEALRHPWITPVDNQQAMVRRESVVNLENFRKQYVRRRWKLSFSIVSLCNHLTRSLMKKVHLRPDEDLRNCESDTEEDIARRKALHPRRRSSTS
Chain of UniProt Q92633 (whole entry, looked up): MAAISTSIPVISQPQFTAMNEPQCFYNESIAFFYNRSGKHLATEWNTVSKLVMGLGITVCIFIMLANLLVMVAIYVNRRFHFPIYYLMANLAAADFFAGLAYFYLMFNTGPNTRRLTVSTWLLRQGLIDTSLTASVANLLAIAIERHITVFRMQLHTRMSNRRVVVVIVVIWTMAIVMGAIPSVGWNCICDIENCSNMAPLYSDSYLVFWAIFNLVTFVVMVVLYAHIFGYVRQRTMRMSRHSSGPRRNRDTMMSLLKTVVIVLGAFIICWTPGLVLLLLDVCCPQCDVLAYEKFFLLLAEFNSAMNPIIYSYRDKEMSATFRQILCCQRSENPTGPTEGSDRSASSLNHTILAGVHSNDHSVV
Chain of UniProt Q8WTQ7 (whole entry, looked up): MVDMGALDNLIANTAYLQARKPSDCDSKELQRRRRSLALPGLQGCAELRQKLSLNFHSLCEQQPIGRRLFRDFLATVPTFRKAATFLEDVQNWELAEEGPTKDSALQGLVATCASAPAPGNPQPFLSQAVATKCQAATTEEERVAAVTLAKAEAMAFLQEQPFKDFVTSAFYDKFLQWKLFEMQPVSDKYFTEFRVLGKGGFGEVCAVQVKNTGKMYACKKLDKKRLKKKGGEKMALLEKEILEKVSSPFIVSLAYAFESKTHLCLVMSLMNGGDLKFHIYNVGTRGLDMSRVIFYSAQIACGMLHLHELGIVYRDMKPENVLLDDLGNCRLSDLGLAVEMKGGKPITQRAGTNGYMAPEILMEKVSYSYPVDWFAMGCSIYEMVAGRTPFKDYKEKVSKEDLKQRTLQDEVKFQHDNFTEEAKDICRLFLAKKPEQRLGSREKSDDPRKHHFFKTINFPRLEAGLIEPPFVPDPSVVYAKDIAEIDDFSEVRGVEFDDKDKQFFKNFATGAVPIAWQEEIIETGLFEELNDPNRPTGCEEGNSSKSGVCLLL
Chain of UniProt Q9BYT3 (whole entry, looked up): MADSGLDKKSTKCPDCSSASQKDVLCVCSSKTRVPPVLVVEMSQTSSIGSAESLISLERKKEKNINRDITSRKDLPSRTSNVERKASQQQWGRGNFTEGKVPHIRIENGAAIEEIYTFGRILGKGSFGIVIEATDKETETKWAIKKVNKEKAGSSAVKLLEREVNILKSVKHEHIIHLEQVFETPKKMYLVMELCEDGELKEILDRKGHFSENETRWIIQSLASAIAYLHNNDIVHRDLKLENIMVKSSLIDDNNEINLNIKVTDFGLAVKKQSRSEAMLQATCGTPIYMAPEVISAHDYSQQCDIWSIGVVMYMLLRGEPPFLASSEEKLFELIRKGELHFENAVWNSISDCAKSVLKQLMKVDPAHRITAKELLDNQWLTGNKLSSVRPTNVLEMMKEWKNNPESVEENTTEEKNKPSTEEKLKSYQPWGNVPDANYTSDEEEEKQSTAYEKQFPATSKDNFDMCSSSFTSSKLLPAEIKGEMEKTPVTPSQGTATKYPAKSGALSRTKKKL
Chain of UniProt Q6QNK2 (whole entry, looked up): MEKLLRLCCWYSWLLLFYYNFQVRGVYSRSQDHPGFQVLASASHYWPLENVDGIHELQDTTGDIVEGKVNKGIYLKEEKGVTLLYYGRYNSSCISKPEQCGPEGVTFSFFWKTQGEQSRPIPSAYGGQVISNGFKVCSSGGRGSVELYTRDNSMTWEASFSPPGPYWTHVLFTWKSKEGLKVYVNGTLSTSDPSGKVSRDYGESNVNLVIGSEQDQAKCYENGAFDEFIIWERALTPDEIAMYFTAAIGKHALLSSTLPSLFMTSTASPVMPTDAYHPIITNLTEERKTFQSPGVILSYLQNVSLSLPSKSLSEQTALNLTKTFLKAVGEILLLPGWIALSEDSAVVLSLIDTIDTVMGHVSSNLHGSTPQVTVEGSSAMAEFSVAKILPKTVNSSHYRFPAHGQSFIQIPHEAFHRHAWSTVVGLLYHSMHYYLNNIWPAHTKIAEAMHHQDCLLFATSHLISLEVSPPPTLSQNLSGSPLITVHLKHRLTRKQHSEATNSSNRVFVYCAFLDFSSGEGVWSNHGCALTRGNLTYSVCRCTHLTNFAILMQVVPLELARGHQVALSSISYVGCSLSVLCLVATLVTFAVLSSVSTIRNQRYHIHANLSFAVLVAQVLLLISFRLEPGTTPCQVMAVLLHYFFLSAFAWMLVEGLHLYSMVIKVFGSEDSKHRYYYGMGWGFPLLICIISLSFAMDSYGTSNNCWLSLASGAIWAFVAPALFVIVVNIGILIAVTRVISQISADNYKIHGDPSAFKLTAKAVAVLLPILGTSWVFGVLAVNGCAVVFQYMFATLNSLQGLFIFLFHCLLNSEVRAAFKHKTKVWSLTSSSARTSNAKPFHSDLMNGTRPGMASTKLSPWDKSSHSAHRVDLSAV
Chain of UniProt Q9UJ42 (whole entry, looked up): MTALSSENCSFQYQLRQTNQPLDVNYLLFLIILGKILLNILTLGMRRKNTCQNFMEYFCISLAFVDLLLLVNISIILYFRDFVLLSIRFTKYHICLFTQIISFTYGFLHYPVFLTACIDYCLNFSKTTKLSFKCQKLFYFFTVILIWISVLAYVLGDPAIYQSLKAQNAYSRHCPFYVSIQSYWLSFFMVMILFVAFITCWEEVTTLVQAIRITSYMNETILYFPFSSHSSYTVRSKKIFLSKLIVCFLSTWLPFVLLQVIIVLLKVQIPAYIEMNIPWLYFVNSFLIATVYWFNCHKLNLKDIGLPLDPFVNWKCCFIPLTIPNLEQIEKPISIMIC
Chain of UniProt Q9BZJ8 (whole entry, looked up): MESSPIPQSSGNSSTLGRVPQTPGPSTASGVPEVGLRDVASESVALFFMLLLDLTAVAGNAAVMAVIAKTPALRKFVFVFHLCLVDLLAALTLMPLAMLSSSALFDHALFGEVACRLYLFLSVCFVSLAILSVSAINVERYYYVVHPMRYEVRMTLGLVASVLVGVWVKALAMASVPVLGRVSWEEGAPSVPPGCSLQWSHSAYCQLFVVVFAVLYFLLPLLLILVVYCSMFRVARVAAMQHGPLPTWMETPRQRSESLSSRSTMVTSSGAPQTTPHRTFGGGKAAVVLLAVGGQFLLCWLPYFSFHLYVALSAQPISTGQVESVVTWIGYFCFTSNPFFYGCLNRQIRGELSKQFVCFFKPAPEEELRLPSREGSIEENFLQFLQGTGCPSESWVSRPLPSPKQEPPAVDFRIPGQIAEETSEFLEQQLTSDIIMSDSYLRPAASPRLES
Chain of UniProt Q86UX6 (whole entry, looked up): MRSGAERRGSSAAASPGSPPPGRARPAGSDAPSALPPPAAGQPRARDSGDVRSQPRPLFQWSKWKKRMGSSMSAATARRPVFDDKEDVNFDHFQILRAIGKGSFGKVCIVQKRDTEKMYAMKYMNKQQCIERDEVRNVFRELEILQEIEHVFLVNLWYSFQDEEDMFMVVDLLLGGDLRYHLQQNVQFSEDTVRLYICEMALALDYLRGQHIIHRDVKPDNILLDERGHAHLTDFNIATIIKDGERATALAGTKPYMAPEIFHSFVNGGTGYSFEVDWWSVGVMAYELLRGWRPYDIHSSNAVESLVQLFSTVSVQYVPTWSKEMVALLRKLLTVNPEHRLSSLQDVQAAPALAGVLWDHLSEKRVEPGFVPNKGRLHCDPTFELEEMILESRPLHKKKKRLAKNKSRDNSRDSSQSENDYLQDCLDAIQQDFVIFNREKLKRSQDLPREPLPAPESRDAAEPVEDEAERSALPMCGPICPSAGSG

Sample 1
Compound: C[C@H](c1cccc(C#N)c1)n1cc(Cl)cc(C(N)=O)c1=N
Method: competition with immobilised ligand
Tested at: 1 µM
| target | read-out | remaining binding [%] |
| --- | --- | --- |
| TRAF2 and NCK-interacting protein kinase (TNIK, Homo sapiens, UniProt Q9UKE5) | cell-free assay | 100 |
| 3-phosphoinositide-dependent protein kinase 1 (PDPK1, Homo sapiens, UniProt O15530) | cell-free assay | 100 |
| Rhodopsin kinase GRK7 (GRK7, Homo sapiens, UniProt Q8WTQ7) | cell-free assay | 85 |
| Wee1-like protein kinase 2 (WEE2, Homo sapiens, UniProt P0C1S8) | cell-free assay | 97 |
| Serine/threonine-protein kinase 32C (STK32C, Homo sapiens, UniProt Q86UX6) | cell-free assay | 100 |
| Serine/threonine-protein kinase 33 (STK33, Homo sapiens, UniProt Q9BYT3) | cell-free assay | 92 |
| Receptor tyrosine-protein kinase erbB-2 (ERBB2, Homo sapiens, UniProt P04626) | cell-free assay | 100 |
| Insulin receptor-related protein (INSRR, Homo sapiens, UniProt P14616) | cell-free assay | 100 |
| Tyrosine-protein kinase ABL1, non-phosphorylated (ABL1, Homo sapiens, UniProt P00519, F317I) | binding | 85 |
| Tyrosine-protein kinase Srms (SRMS, Homo sapiens, UniProt Q9H3Y6) | cell-free assay | 75 |
| Death-associated protein kinase 2 (DAPK2, Homo sapiens, UniProt Q9UIK4) | cell-free assay | 100 |
| Cyclin-dependent kinase-like 1 (CDKL1, Homo sapiens, UniProt Q00532) | cell-free assay | 98 |

Sample 2
Species: human
Medium: microsomes or S9
Tested at: 2 µM
Time: 0.5 h
| SMILES | remaining compound |
| --- | --- |
| Cn1cc(-c2cccc(CNc3nnc(C(C)(C)C)o3)c2)cn1 | 38.8% |
| C=CCc1c(O)ccc2[nH]cc(S(=O)(=O)c3ccc(C)cc3)c12 | 32.1% |
| Nc1oc(=O)c2ccccc2c1N1CCCc2ccccc21 | 54.4% |
| Cc1csc(-c2noc(Cc3csc(C(C)C)n3)n2)n1 | 44.2% |
| CN(C)c1ccc2oc(-c3cc(-c4cnn(C5CCNCC5)c4)cnc3N)nc2c1 | 92.8% |
| CCOc1cc(CNCCCN2CCOCC2)cc(Br)c1OCc1ccccc1Cl | 8.34% |
| Nc1ccc2c(c1)C(N(Cc1ncc[nH]1)c1ccc(Cl)cc1)C(O)CCO2 (centres unmarked) | 22.5% |
| CCOc1ccc(-c2[nH]c3[nH]c(=O)[nH]c(=O)c3c2-c2ccc(OC)cc2)cc1OC | 80.6% |
| Cc1c(-c2cc[nH]n2)c2c(C)cccn2c1-c1ccccc1 | 45.2% |
| CCOc1ccc(/N=c2\cc(C)c(C#N)c3[nH]c4ccccc4n23)cc1 | > 100% |

Sample 3
Compound: N=C(N)NC(=O)c1cnn(-c2cccc3ncccc23)c1C1CC1
Read-out: β-arrestin recruitment
Action: agonist
Method: PRESTO-Tango
Tested at: 10 µM
Relative to: untreated
| target | fold over basal |
| --- | --- |
| Probable G-protein coupled receptor 25 (GPR25, Homo sapiens, UniProt O00155) | 0.87 |
| G-protein coupled receptor 61 (GPR61, Homo sapiens, UniProt Q9BZJ8) | 1.06 |
| Lysophosphatidic acid receptor 1 (LPAR1, Homo sapiens, UniProt Q92633) | 0.83 |
| Adhesion G-protein coupled receptor D1 (ADGRD1, Homo sapiens, UniProt Q6QNK2) | 1.44 |
| Probable G-protein coupled receptor 173 (GPR173, Homo sapiens, UniProt Q9NS66) | 1.31 |
| Probable G-protein coupled receptor 160 (GPR160, Homo sapiens, UniProt Q9UJ42) | 1.01 |

Sample 4
Target: Tyrosine-protein kinase Srms (SRMS, Homo sapiens, UniProt Q9H3Y6)
Read-out: enzyme activity
Action: inhibitor
Tested at: 0.5 µM
Relative to: control
| Compound | remaining activity |
| --- | --- |
| Nc1cccc(-c2cc3c(Oc4cccc(O)c4)ncnc3[nH]2)c1 | 94.4% |
| c1ccc(-c2cnc(Nc3ccc(OCCN4CCCC4)cc3)s2)cc1 | 96.5% |
| O=C1C(Cl)=C(N2C(=O)CCC2=O)C(=O)c2ccccc21 | 108% |
| COc1cc2ncnc(Nc3ccc(O)c(Br)c3)c2cc1OC | 90.4% |
| O=C1c2ccccc2-c2n[nH]c3cccc1c23 | 99.1% |
| CCN(CC)C(=O)c1ccc(Nc2nc(OCC3CCCCC3)c3[nH]cnc3n2)cc1 | 84.7% |
| O=c1cc(-c2cccc3c2Sc2ccccc2S3)oc(N2CCOCC2)c1 | 93.8% |
| CN(C)C[C@H]1CCn2c(c(C3=C(c4cn(C)c5ccccc45)C(=O)NC3=O)c3ccccc32)C1 | 109% |
| Cc1cn(-c2cc(NC(=O)c3ccc(C)c(Nc4nccc(-c5cccnc5)n4)c3)cc(C(F)(F)F)c2)cn1 | 118% |
| COc1cc2ncnc(Nc3cccc(Cl)c3)c2cc1OC | 93.8% |
| COc1cc2c(cc1OC)-c1[nH]nc(Nc3cccc(F)c3)c1C2 | 99.9% |
| CCN(CC)CCNC(=O)c1c(C)[nH]c(/C=C2\C(=O)Nc3ccc(F)cc32)c1C | 99.6% |
| Cc1cc2ncc(-c3ccccc3)nc2cc1C | 93.5% |
| C[C@@H]1CCN(C(=O)CC#N)C[C@@H]1N(C)c1ncnc2[nH]ccc12 | 95.8% |
| N#C/C(=C\c1ccc(O)c(O)c1)C(=O)NCc1ccccc1 | 104% |
| CCOc1nc(NC(=O)Cc2cc(OC)ccc2OC)cc(N)c1C#N | 108% |
| c1ccc(-c2[nH]ncc2-c2ccnc3ccccc23)nc1 | 105% |
| Cc1nc2cc3nc(-c4cccs4)cnc3cc2n1C | 95.4% |
| CCN(CC)CCNC(=O)c1c(C)[nH]c(/C=C2\C(=O)Nc3ccc(Cl)cc32)c1C | 102% |
| Ic1cccc(CSc2nnc(-c3ccncc3)o2)c1 | 93.4% |
| N#Cc1c(NC(=O)c2cccc3ccccc23)sc2c1CCCC2 | 106% |
| CN([C@@H](Cc1ccc(OS(=O)(=O)c2cccc3cnccc23)cc1)C(=O)N1CCN(c2ccccc2)CC1)S(=O)(=O)c1cccc2cnccc12 | 103% |

Some of these lines once more (sample 4):
| Compound | remaining activity |
| --- | --- |
| COc1cc2ncnc(Nc3ccc(O)c(Br)c3)c2cc1OC | 90.4% |
| CN(C)C[C@H]1CCn2c(c(C3=C(c4cn(C)c5ccccc45)C(=O)NC3=O)c3ccccc32)C1 | 109% |
| COc1cc2ncnc(Nc3cccc(Cl)c3)c2cc1OC | 93.8% |
| Cc1cn(-c2cc(NC(=O)c3ccc(C)c(Nc4nccc(-c5cccnc5)n4)c3)cc(C(F)(F)F)c2)cn1 | 118% |
| Ic1cccc(CSc2nnc(-c3ccncc3)o2)c1 | 93.4% |
